Published values of several laboratories.
Lines come from different studies, so protocols differ. ± gives the spread as reported.

CCCC[C@H](NC(=O)CNC(=O)CNC(=O)CN1CCN(CC(=O)O)CCN(CC(=O)O)CCN(CC(=O)O)CC1)C(=O)N[C@H]1CC(=O)NCCCC[C@@H](C(N)=O)NC(=O)[C@H](Cc2c[nH]c3ccccc23)NC(=O)[C@H](CCCNC(=N)N)NC(=O)[C@@H](Cc2ccccc2)NC(=O)[C@H](Cc2c[nH]cn2)NC1=O [indium-111 labelled]  tumour to liver uptake ratio (C57 mouse, B16/F1 melanoma; 4 h; reference: tumour over liver): 31
CSCC[C@H](NC(=O)[C@H](Cc1ccc(O)cc1)NC(=O)[C@@H]1CSSC[C@H](NC(=O)[C@H](Cc2ccc(O)cc2)NC(=O)[C@H](CCCCN)NC(=O)[C@H](CC(C)C)NC(=O)[C@@H](NC(=O)[C@H](Cc2ccccc2)NC(=O)[C@H](Cc2ccccc2)NC(=O)CCCCCOc2cc(C(=O)c3ccc4ccc5cccc6ccc3c4c56)cc(C(=O)c3ccc4ccc5cccc6ccc3c4c56)c2)C(C)C)C(=O)N[C@@H](CC(=O)O)C(=O)NCC(=O)N[C@@H](Cc2ccccc2)C(=O)N[C@@H](Cc2ccc(O)cc2)C(=O)N[C@@H](C)C(=O)N1)C(=O)N[C@@H](CC(=O)O)C(=O)N[C@H](C(N)=O)C(C)C  tumour fluorescence persistence (ex vivo fluorescence imaging; Balb/c nude mouse, MCF7/C6 tumour; iv, 8 mg/kg): > 3 days
CCCC[C@H](NC(=O)[C@H](CCC(=O)O)NC(=O)CNC(=O)CN1CCN(CC(=O)O)CCN(CC(=O)O)CCN(CC(=O)O)CC1)C(=O)N[C@H]1CC(=O)NCCCC[C@@H](C(N)=O)NC(=O)[C@H](Cc2c[nH]c3ccccc23)NC(=O)[C@H](CCCNC(=N)N)NC(=O)[C@@H](Cc2ccccc2)NC(=O)[C@H](Cc2c[nH]cn2)NC1=O [indium-111 labelled]  tumour to skin uptake ratio (C57 mouse, B16/F1 melanoma; 0.5 h; reference: tumour over skin): 7.21
CC(F)C(=O)NCCOCCOCCOCC(=O)N[C@@H](CCC(=O)NCCCC[C@@H]1NC(=O)[C@@H](Cc2ccc(O)cc2)NC(=O)[C@H](CC(=O)O)NC(=O)CNC(=O)[C@H](CCCNC(=N)N)NC1=O)C(=O)NCCCC[C@@H]1NC(=O)[C@@H](Cc2ccc(O)cc2)NC(=O)[C@H](CC(=O)O)NC(=O)CNC(=O)[C@H](CCCNC(=N)N)NC1=O (stereo partly shown) [fluorine-18 labelled]  tumour uptake (female athymic nude mouse, U-87 MG xenograft, U-87 MG tumour; dose not given, 1 h): 2.3 ± 0.2 %ID/g
CC(C)[C@H](NC(=O)[C@@H]1CCCN1C(=O)[C@H](CCCNC(=N)N)NC(=O)[C@H](CS)NC(=O)[C@H](Cc1c[nH]c2ccccc12)NC(=O)[C@H](CCCNC(=N)N)NC(=O)[C@@H](Cc1ccccc1)NC(=O)[C@H](Cc1c[nH]cn1)NC(=O)[C@H](CCC(=O)O)NC(=O)[C@H](CS)NC(=O)[C@H](CS)NC(=O)CNC(=O)[C@@H]1CC(=O)N[C@@H](CCCNC(=N)N)C(=O)NCC(=O)N[C@@H](CC(=O)O)C(=O)N[C@H](Cc2ccc(O)cc2)C(=O)N1)C(N)=O [technetium-99m labelled]  tumour to tissue ratio (C57 mouse, female, B16/F1 melanoma; intravenous, 0.037 MBq, 2 h; reference: tumour over blood): 16.4
CCCC[C@H](NC(=O)CNC(=O)CNC(=O)CN1CCN(CC(=O)O)CCN(CC(=O)O)CCN(CC(=O)O)CC1)C(=O)N[C@H]1CC(=O)NCCCC[C@@H](C(N)=O)NC(=O)[C@H](Cc2c[nH]c3ccccc23)NC(=O)[C@H](CCCNC(=N)N)NC(=O)[C@@H](Cc2ccccc2)NC(=O)[C@H](Cc2c[nH]cn2)NC1=O [gallium-67 labelled]  tumour to kidney ratio (female C57 mouse B16/F1 melanoma; intravenous, 0.037 MBq, 0.5 h): 1.64
CC(F)C(=O)NC[C@@H]1O[C@H](C(=O)NCCCC[C@@H]2NC(=O)[C@@H](Cc3ccccc3)NC(=O)[C@H](CC(=O)O)NC(=O)CNC(=O)[C@H](CCCNC(=N)N)NC2=O)[C@H](O)[C@H](O)[C@H]1O (stereo partly shown) [fluorine-18 labelled]  tumour uptake (microPET; female athymic nude mouse, U-87 MG xenograft, U-87 MG tumour; intravenous, 3.7 MBq, 120 min): 0.87 ± 0.13 %ID/g
CCCC[C@H](NC(=O)CN1CCC(NC(=O)CN2CCN(CC(=O)O)CCN(CC(=O)O)CCN(CC(=O)O)CC2)CC1)C(=O)N[C@H]1CC(=O)NCCCC[C@@H](C(N)=O)NC(=O)[C@H](Cc2c[nH]c3ccccc23)NC(=O)[C@H](CCCNC(=N)N)NC(=O)[C@@H](Cc2ccccc2)NC(=O)[C@H](Cc2c[nH]cn2)NC1=O  tumour to bone ratio (biodistribution; C57BL/6J mouse male tumour-bearing; 2 h post injection, unblocked; reference: tumour over bone): 39.6 ± 11.9
CC[C@H](C)[C@H](NC(=O)[C@H](C)NC(=O)[C@H](CC(C)C)NC(=O)[C@H](Cc1ccc(O)c(I)c1)NC(C)=O)C(=O)NCCCCCC(=O)N1CCC[C@H]1C(=O)N[C@@H](C)C(=O)N[C@@H](CC(=O)O)C(=O)N[C@@H](CCC(=O)O)C(=O)N[C@H](C(=O)N[C@@H](CC(=O)O)C(=O)NCC(=O)N[C@@H](CCCNC(=N)N)C(=O)N[C@@H](CCCNC(=N)N)C(=O)N[C@@H](CCCNC(=N)N)C(=O)N[C@@H](CCCN)C(=O)N[C@@H](CCCNC(=N)N)C(=O)N[C@@H](CCCNC(=N)N)C(=O)N[C@@H](CCCCN)C(=O)N[C@@H](CCCCN)C(=O)N[C@@H](CCCNC(=N)N)C(=O)N[C@@H](CCCCNC(=O)CN1CCN(CC(=O)O)CCN(CC(=O)O)CCN(CC(=O)O)CC1)C(N)=O)C(C)C [iodine-125 labelled]  tumour to tissue ratio (female BALB/c mouse, orthotopic 4T1 tumour, tumour over blood; intravenous, 0.185 MBq, 1 h): 0.6 ± 0.03
O=C(O)CCC(NP(=O)(O)OCCC[C@@H](NC(=O)CC[C@H](NC(=O)CCCCCNC(=O)c1ccc([18F])cc1)C(=O)O)C(=O)O)C(=O)O (stereo partly shown)  tumour uptake (mouse, CWR22Rv1 tumour xenograft, tumour; dose not given, 1 h): 2.35%
CC(C)C[C@H](NC(=O)C[C@H](O)[C@H](CC(C)C)NC(=O)[C@H](Cc1c[nH]cn1)NC(=O)CNC(=O)[C@@H](NC(=O)[C@H](C)NC(=O)[C@H](Cc1c[nH]c2ccccc12)NC(=O)[C@H](CCC(N)=O)NC(=O)[C@@H](Cc1ccccc1)NC(=O)CCNC(=O)CCNC(=O)CN1CCN(CC(=O)O)CCN(CC(=O)O)CCN(CC(=O)O)CC1)C(C)C)C(N)=O [lutetium-177 labelled]  tumour clearance half-life (mouse, PC-3 xenograft; intraperitoneal): 24.4 ± 8.3 h
CC(F)C(=O)NC[C@@H]1O[C@H](C(=O)N[C@@H](CCC(=O)NCCCC[C@@H]2NC(=O)[C@@H](Cc3ccc(O)cc3)NC(=O)[C@H](CC(=O)O)NC(=O)CNC(=O)[C@H](CCCNC(=N)N)NC2=O)C(=O)NCCCC[C@@H]2NC(=O)[C@@H](Cc3ccc(O)cc3)NC(=O)[C@H](CC(=O)O)NC(=O)CNC(=O)[C@H](CCCNC(=N)N)NC2=O)[C@H](O)[C@H](O)[C@H]1O (stereo partly shown) [fluorine-18 labelled]  tumour uptake (microPET imaging; female athymic nude mouse, U-87 MG xenograft, U-87 MG tumour; intravenous, 3.7 MBq, 1 h post-injection): 2.82 ± 0.39 %ID/g
N=C(N)NCCC[C@@H]1NC(=O)[C@H](CCCCNC(=O)CC[C@H](NC(=O)CN2CCN(CC(=O)O)CCN(CC(=O)O)CCN(CC(=O)O)CC2)C(=O)NCCCC[C@@H]2NC(=O)[C@@H](Cc3ccccc3)NC(=O)[C@H](CC(=O)O)NC(=O)CNC(=O)[C@H](CCCNC(=N)N)NC2=O)NC(=O)[C@@H](Cc2ccccc2)NC(=O)[C@H](CC(=O)O)NC(=O)CNC1=O [indium-111 labelled]  tumour uptake (female nude BALB/c mouse, SK-RC-52 xenograft, tumour; intravenous, 2 h): 5.61 ± 0.85 %ID/g

Repeated from above:
O=C(O)CCC(NP(=O)(O)OCCC[C@@H](NC(=O)CC[C@H](NC(=O)CCCCCNC(=O)c1ccc([18F])cc1)C(=O)O)C(=O)O)C(=O)O (stereo partly shown)  tumour uptake (mouse, CWR22Rv1 tumour xenograft, tumour; dose not given, 1 h): 2.35%
